Assay results from different studies.
Lines come from different studies, so protocols differ. Several values in a cell are separate wells, animals, samples, runs or records.
PIK3CA: Phosphatidylinositol 4,5-bisphosphate 3-kinase catalytic subunit alpha isoform (PIK3CA, Homo sapiens, UniProt P42336)
PIK3CA H1047R with p85: Phosphatidylinositol 4,5-bisphosphate 3-kinase catalytic subunit alpha isoform, with p85 (PIK3CA, Homo sapiens, UniProt P42336, H1047R)
PIK3CA E542K: Phosphatidylinositol 4,5-bisphosphate 3-kinase catalytic subunit alpha isoform (PIK3CA, Homo sapiens, UniProt P42336, E542K)
PIK3CA I800L: Phosphatidylinositol 4,5-bisphosphate 3-kinase catalytic subunit alpha isoform (PIK3CA, Homo sapiens, UniProt P42336, I800L)
PIK3CA M1043I: Phosphatidylinositol 4,5-bisphosphate 3-kinase catalytic subunit alpha isoform (PIK3CA, Homo sapiens, UniProt P42336, M1043I)
PIK3CA E545K: Phosphatidylinositol 4,5-bisphosphate 3-kinase catalytic subunit alpha isoform (PIK3CA, Homo sapiens, UniProt P42336, E545K)
PIK3CA Q546K: Phosphatidylinositol 4,5-bisphosphate 3-kinase catalytic subunit alpha isoform (PIK3CA, Homo sapiens, UniProt P42336, Q546K)

Compound | target | test | setting | scale | measurement | value
C=CC(=O)Nc1cccc(-c2cnc3[nH]cc(C(=O)NC(C)(C)C)c3n2)c1 | PIK3CA | kinase activity | 0.1 µM | – | inhibition | 28% and 26%
O=c1c(-c2ccc(Cl)c(CN3CCOCC3)c2)coc2cc(O)ccc12 | PIK3CA H1047R with p85 | enzyme activity, inhibitor | 1 µM | – | remaining activity | 98%
Nc1ncc2c(n1)-c1c([nH]c3ccc(C4=CCOCC4)cc13)CCC2 | PIK3CA E542K | binding, competition with immobilised ligand | 1 µM | – | remaining binding | 92%
C=CC(=O)N1CCCC(n2c(=O)c3ncccc3n(Cc3ccc(Oc4ccccc4)cc3)c2=O)C1 (centres unmarked) | PIK3CA (Homo sapiens, UniProt P42336, E545A) | cell-free assay, competition with immobilised ligand | 1 µM | – | remaining binding | 90%
CC(=O)c1cnc(N)nc1N1CC[C@H]1c1nn2ccc(Cl)c2c(=O)n1-c1ccccc1 | PIK3CA I800L | binding, competition with immobilised ligand | 10 µM | – | remaining binding | 51%
CNC(=O)C[C@H](Cc1ccc(C#N)cc1)NC(=O)c1cc(-c2ccc(CN[C@H](C)c3ccc(C)cc3)o2)ccc1Cl | Phosphatidylinositol 4,5-bisphosphate 3-kinase catalytic subunit alpha isoform, with p85 alpha (PIK3CA, Homo sapiens, UniProt P42336) | enzyme activity, KinaseProfiler panel | 1 µM | – | remaining activity | 101%
CCN1CCN(Cc2ccc(C(=O)Nc3ccc(C)c(NCc4cnc5[nH]ccc5c4OC)c3)cc2C(F)(F)F)CC1 | PIK3CA I800L | binding, competition with immobilised ligand | 1 µM | – | remaining binding | 94%
Cc1ccc(-c2c(/C=C(\C#N)C(=O)NC(C)C)n(CCCO)c3ncnc(N)c23)cc1 | PIK3CA M1043I | cell-free assay, competition with immobilised ligand | 1 µM | – | remaining binding | 88%
CC(C)=CC1OC(C)(C)C2C=C3C(=O)C(Cl)=CC(O)C3C3C(O)C4OC4C(=O)C132 (centres unmarked) | PIK3CA E545K | cell-free assay, competition with immobilised ligand | 10 µM | – | remaining binding | 52%
COc1cc(Nc2nccc(-c3cnn4nc(OC)ccc34)n2)cc(C(F)(F)F)c1 | PIK3CA Q546K | binding | 1 µM | – | remaining binding | 100%
COc1c(Cl)cccc1Nc1c(-c2ccncc2C#C[C@@]2(C)CCCN2C(=O)/C=C/CN(C)C)[nH]c2c1C(=O)NCC2 | PIK3CA Q546K | binding, competition with immobilised ligand | 3 µM | – | remaining binding | 71%
C=CC(=O)N1Cc2nc(-c3cc(-c4cc(Cl)cnc4Cl)c(F)cc3F)n(-c3ccncn3)c2C1 | Phosphatidylinositol 4,5-bisphosphate 3-kinase catalytic subunit alpha isoform, with p55 gamma (PIK3CA, Homo sapiens, UniProt P42336) | kinome panel | 1 µM | – | inhibition | -10.1%
Cc1cccc(O[C@H]2CCC[C@@H](C(C)CNCc3ccncc3)C2)c1 (relative stereo) | PIK3CA | enzyme activity, inhibitor | 10 µM | – | inhibition | -5%
CNC1C[S+]2CC[S+]3CC[S+](C1)[Ru-4]321([N]=C=S)[n]2c3ccc(OC)cc3c3c4c(c5cc(F)c[n+]1c5c32)C(=O)NC4=O (centres unmarked) | PIK3CA (Homo sapiens, UniProt P42336, C420R) | KinomeScan | 0.1 µM | relative to: untreated | remaining binding | 89%
COc1cc(Nc2nc(C)cc(-c3cnn4nc(OC)ccc34)n2)cc(C(F)(F)F)c1 | PIK3CA M1043I | inhibitor | 1 µM | relative to: control | remaining activity | 100%
C=CC(=O)N1CCc2ccc(-n3c(=O)ccc4cnc5ccc(-c6cnn(C)c6)cc5c43)cc21 | PIK3CA E545K | KINOMEscan | 1 µM | relative to: DMSO control | remaining binding | 52%
CNC(=O)C1CCN(c2cc(C)c(F)cc2NC(=O)c2ccc(-c3cc(O)ccc3C)c(C)c2)CC1 | PIK3CA M1043I | binding, competition with immobilised ligand | 1 µM | – | remaining binding | 100%
COc1ccc(O)cc1-c1c[nH]c2ncc(-c3cncc(C(=O)N(C)C)c3)cc12 | PIK3CA | binding, competition with immobilised ligand | 0.2 µM | – | inhibition | 9.08%
Cc1nc2c(F)cc(-c3nc(Nc4ccc(CNC(=O)CCCCCCC(=O)NO)cc4)ncc3F)cc2n1C(C)C | PIK3CA H1047R with p85 | enzyme activity, inhibitor | 1 µM | – | inhibition | 53%
Cc1cnc2nc1Nc1cccc(c1)COC/C=C/COCc1cc(ccc1OCCN1CCOCC1)N2 | PIK3CA E542K | binding | 0.1 µM | – | remaining binding | 88%

Some of these lines once more:
Compound | target | test | setting | scale | measurement | value
C=CC(=O)Nc1cccc(-c2cnc3[nH]cc(C(=O)NC(C)(C)C)c3n2)c1 | PIK3CA | kinase activity | 0.1 µM | – | inhibition | 28% and 26%
O=c1c(-c2ccc(Cl)c(CN3CCOCC3)c2)coc2cc(O)ccc12 | PIK3CA H1047R with p85 | enzyme activity, inhibitor | 1 µM | – | remaining activity | 98%
